Assay results from different studies.
Numbered parts are unrelated; each lists some results of a single study.

Study 1 — organism: Vesicular stomatitis virus; effect on: pseudovirus infection; technique: FDA-approved drug library screen; tested at: concentration not given; notes: SARS-CoV-2 spike pseudotype; relative to: vehicle
Structure (SMILES)	GFP-positive cells
COc1ccc(C[C@@H](C)NC[C@H](O)c2ccc(O)c(NC=O)c2)cc1.COc1ccc(C[C@@H](C)NC[C@H](O)c2ccc(O)c(NC=O)c2)cc1.O=C(O)/C=C/C(=O)O	95.8%
CC(C)OC(=O)[C@H](C)N[P@](=O)(OC[C@H]1O[C@@H](n2ccc(=O)[nH]c2=O)[C@](C)(F)[C@@H]1O)Oc1ccccc1	95.1%
C[C@@H](Oc1cc(-c2cnn(C3CCNCC3)c2)cnc1N)c1c(Cl)ccc(F)c1Cl	13.2%
CCN1CC(CCN2CCOCC2)C(c2ccccc2)(c2ccccc2)C1=O.Cl.O (centres unmarked)	128%

Study 2 — effect on: enzyme activity; action: inhibitor
Target: Replicase polyprotein 1ab, main protease (rep, Severe acute respiratory syndrome coronavirus 2, UniProt P0DTD1)
Compound	IC50 [µM]
O=C(c1ccc(Cl)cc1)c1cc([N+](=O)[O-])ccc1N1CCOCC1	> 20
CC1(C)C(/C=C/C=C/C=C/C=C2\N(CCCCS(=O)(=O)O)c3ccc4ccccc4c3C2(C)C)=[N+](CCCCS(=O)(=O)[O-])c2ccc3ccccc3c21	15.9
Cc1ccc(-n2sc3ccccc3c2=O)cc1	0.05

Study 3 — technique: protein-binding microarray; molecule type: double-stranded DNA, one strand shown; matrix: in vitro; tested at: 250 nM; notes: 60-bp whole probe; with: salmon DNA 0.4 mg/ml; relative to: random background probes; direction: higher = stronger binding; shared flanks, not repeated: GCCTAGCAC … GTCTTGATTCGCTTGACGCTGCTG
Target: Interferon regulatory factor 7, full length, phosphomimetic (IRF7, Homo sapiens, UniProt Q92985, residues 1-503, S101K/S471D/S472D/S475D/S476D/S477D/S483D/S484D/S487D)
UniProt Q92985, sequence (whole entry, unmodified, looked up): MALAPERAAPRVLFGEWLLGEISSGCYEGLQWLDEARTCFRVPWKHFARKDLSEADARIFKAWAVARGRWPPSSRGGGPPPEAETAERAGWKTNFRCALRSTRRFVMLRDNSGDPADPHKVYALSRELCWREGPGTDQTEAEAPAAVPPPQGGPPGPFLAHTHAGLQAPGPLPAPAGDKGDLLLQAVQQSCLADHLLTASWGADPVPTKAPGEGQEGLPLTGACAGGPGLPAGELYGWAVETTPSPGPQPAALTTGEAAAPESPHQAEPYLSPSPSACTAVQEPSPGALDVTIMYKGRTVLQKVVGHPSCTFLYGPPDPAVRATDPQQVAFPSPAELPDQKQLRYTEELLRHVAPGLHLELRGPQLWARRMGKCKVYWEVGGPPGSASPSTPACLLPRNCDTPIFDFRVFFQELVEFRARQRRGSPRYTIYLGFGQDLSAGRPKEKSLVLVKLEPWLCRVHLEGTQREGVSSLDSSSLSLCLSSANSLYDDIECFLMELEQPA
Strand	log fluorescence [z-score]
ACTAGTTTTCATTTTCTGAAGTGCTAG	3.96
TTAGGTTTCCTTTTCCATTAGTGCTAG	6.76
TTAGAACTGAGTCTCTATTAGTGCTAG	0.0747
TTGCGTCTGGGTGTTTTCTAGTGCTAG	-0.944
TTAGATTTCGACACTGGGTTAGTGCTA	0.283
TTGGGTATCGGGACTGGGTTAGTGCTA	-0.0404
TTAGTTTTCGACTATCGGTTAGTGCTA	1.97
GACGGACTCGGGTATCGGGACGTGCTA	0.59

Study 4 — action: inhibitor; tested at: 20 µM
Target: Replicase polyprotein 1ab, nsp13 helicase (rep, Severe acute respiratory syndrome coronavirus 2, UniProt P0DTD1)
Structure (SMILES)	inhibition [%]
CC(C)(O)c1coc(S(=O)(=O)NC(=O)Nc2c3c(cc4c2CCC4)CCC3)c1	0.15
O=C(NC1CCNCC1)c1n[nH]cc1NC(=O)c1c(Cl)cccc1Cl	7.36
CNC(=O)c1ccc(N2C(=S)N(c3cnc(C#N)c(C(F)(F)F)c3)C(=O)C23CCC3)cc1F	3.6
Cc1cc(C(=O)Nc2nc3cccc(Cl)c3n2[C@@H]2CCCCN(C(=O)/C=C/CN(C)C)C2)ccn1	19.7
c1cc(-c2sc(-c3ccncc3)c(-c3ccncc3)c2-c2ccncc2)ccn1	4.08
Nc1nccc2c1ncn2[C@@H]1O[C@H](CO)[C@@H](O)[C@H]1O	5.57
CC(=O)Nc1ccc(C(=O)Nc2ccccc2N)cc1	1.69
CCCCCCCCCCCCCCCC(=O)OC(C)C	7.38
CNc1cc2c(Nc3cccc(Br)c3)ncnc2cn1	-0.99
Cc1nc2c(c(=O)[nH]1)CSCC2	6.74
O=c1ccc2cc3ccoc3cc2o1	-0.63
Nc1cc(F)ccc1NC(=O)c1ccc(CNC(=O)/C=C/c2cccnc2)cc1	1.02
Cc1ccccc1-n1c(Cn2ncc3c(N)ncnc32)nc2cccc(C)c2c1=O	1.21
CC(C)c1c2cc(-c3ccnc(N[C@H]4CC[C@H](NC5CCOCC5)CC4)n3)ccc2nn1C	-6.15
O=C(CCc1ccc(O)cc1)c1c(O)cc(O)cc1O[C@@H]1O[C@H](CO)[C@@H](O)[C@H](O)[C@H]1O	-0.82
CC(C)[C@H](N)C(=O)OCC(CO)OCn1cnc2c(=O)nc(N)[nH]c21 (some centres unmarked)	7.15
O=C(/C=C/C=C/c1ccc2c(c1)OCO2)N1CCCCC1	0.16
COC(=O)N[C@H](C(=O)N1CCC[C@H]1C(=O)Nc1ccc([C@@H]2CC[C@@H](c3ccc(NC(=O)[C@@H]4CCCN4C(=O)[C@@H](NC(=O)OC)C(C)C)cc3)N2c2ccc(C(C)(C)C)cc2)cc1)C(C)C	-0.37
CC(C)c1cc(C(C)C)c(CC(=O)NS(=O)(=O)Oc2c(C(C)C)cccc2C(C)C)c(C(C)C)c1	16.5
N[C@@H](CC(=O)NO)C(=O)O	4.31
COc1ccc(Nc2nccc(NCCO)n2)cc1	4.81
O[C@H]1[C@H](O)[C@@H](O)[C@H](O)[C@@H](O)[C@H]1O	2.14
Cn1ccnc1S	3.13
CCCCCCCCCCCCOCCOCCOCCOCCOCCOCCOCCOCCOCCO	2.81
NC(=O)c1ccccc1O	-0.56

Study 5 — technique: protein binding microarray; molecule type: double-stranded DNA, one strand shown; matrix: in vitro; tested at: not given; relative to: not given; direction: higher = stronger binding
Target: Histone acetyltransferase KAT6A, winged helix 2, GST fusion (KAT6A, Homo sapiens, UniProt Q92794, residues 85-181)
Notes: 8-mer, flanks averaged, mean of 2 arrays, mostly near background
Construct (chain): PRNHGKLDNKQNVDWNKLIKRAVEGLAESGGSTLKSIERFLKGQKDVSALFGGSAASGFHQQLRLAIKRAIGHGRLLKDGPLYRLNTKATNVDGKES
Strand	E-score
ACAGTGCA	-0.0233
TACTTCTA	-0.0821
AGAGGCGG	0.195
GCCAGGTA	-0.102
TCCTAACA	-0.0122
AATGGTGC	0.00637
CAGACAGC	-0.126
TACTATCA	0.0359

Study 6 — technique: RNA Bind-n-Seq; molecule type: RNA; matrix: in vitro; tested at: 200 nM; notes: whole 134-nt RNA, ends assumed; with: 150 mM KCl; relative to: input library; direction: higher = stronger binding
Target: Ras GTPase-activating protein-binding protein 1, full length (G3BP1, Homo sapiens, UniProt Q13283)
UniProt Q13283, sequence (whole entry, looked up): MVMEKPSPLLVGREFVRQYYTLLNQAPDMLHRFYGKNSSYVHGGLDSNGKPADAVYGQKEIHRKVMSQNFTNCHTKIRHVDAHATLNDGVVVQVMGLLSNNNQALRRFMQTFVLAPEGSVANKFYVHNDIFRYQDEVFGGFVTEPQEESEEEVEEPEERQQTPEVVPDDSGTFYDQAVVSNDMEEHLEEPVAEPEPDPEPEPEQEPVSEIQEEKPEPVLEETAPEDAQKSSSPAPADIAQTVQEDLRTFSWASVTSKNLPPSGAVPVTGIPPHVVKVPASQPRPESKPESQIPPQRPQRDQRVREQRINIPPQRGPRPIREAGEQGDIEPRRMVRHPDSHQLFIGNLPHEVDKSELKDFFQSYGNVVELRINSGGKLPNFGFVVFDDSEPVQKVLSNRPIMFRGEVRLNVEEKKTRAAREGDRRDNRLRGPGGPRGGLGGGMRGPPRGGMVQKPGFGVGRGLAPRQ
Shared flanks, not repeated: GGGAGUUCUACAGUCCGACGAUC … UGGAAUUCUCGGGUGUCAAGG
Strand	log2 enrichment
CUGUGCUACACAUCGUAUGUACCGAAUCGGGAAAAAAAGGGGAAAAAAAGGGGAAAAAAAGGAAAGUAUUAUGUUACGCCGUUCGGAUCU	-0.632
GCAGGAAGUAAAAACAAAUGGAAAUGCUUCGGAUAGUGGCAGGGGUGGGGGUUGCUAAGGAAAGGGUGGGAUGGGAGUAAAUAAAGAGUU	0.866
UAACUUUAGAGGAGGAUCUGAUGGUUAUGGCAGUGGACGUGGAUUUGGGGAUGGCUAUAAUGGGUAUGGAGGAGGACCUGGAGGUGGCAA	0.347
CCUCAAGUCCUGUGCUACACAUCGUAUGUACCGAAUCGGCCGGCCGGGCCGGGAAAGUAUUAUGUUACGCCGUUCGGAUCUGCACUUCCA	-0.37
UGGCCCCGGUGGCAUGCGGGGAGGAAGAGGUGGCCUCAUGGAUCGUGGUGGUCCCGGUGGAAUGUUCAGAGGUGGCCGUGGUGGAGACAG	0.00746
UGGGAGGUGGAUUUUGUUUAUUUUUUUAGCUCAUUUCCAGGGGUUGGAAUUUUUUUUUAAUAUGUGUCAUGAAUAAAGUUGUUUUUGAAA	-0.335
CUGUGCUACACAUCGUAUGUACCGAAUCGGGAAAAAAAGGGGAAAAAAAGGAAAAAAAGGGAAAGUAUUAUGUUACGCCGUUCGGAUCUG	-0.824
UUUUGAGGAAAGGAUGAAGGAGCUCAGAGAAGAGGUAAGGGUCUCCUAUCCUUCCCCUCUCCCCCAGAUUUGAGUUUUAUGUUAUGAAUC	-0.333

For quick reference, copied from above (study 4):
Structure (SMILES)	inhibition [%]
c1cc(-c2sc(-c3ccncc3)c(-c3ccncc3)c2-c2ccncc2)ccn1	4.08
O=C(NC1CCNCC1)c1n[nH]cc1NC(=O)c1c(Cl)cccc1Cl	7.36
CCCCCCCCCCCCCCCC(=O)OC(C)C	7.38
Nc1cc(F)ccc1NC(=O)c1ccc(CNC(=O)/C=C/c2cccnc2)cc1	1.02
